Published values from different studies.
Each line is one published result; not all experiments were run side by side.
Fibroblast growth factor 14: Fibroblast growth factor 14 (Homo sapiens, UniProt Q92915)
Chain of UniProt Q92915 (whole entry, looked up): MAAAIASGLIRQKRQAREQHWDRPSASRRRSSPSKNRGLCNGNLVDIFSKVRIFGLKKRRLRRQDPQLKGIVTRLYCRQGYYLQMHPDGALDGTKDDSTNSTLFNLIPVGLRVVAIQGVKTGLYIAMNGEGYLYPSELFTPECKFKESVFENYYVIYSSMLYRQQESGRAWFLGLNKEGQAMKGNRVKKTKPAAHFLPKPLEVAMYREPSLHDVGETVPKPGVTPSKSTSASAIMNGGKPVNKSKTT
BRD9: Bromodomain-containing protein 9 (BRD9, Homo sapiens, UniProt Q9H8M2)
Chain of UniProt Q9H8M2 (whole entry, looked up): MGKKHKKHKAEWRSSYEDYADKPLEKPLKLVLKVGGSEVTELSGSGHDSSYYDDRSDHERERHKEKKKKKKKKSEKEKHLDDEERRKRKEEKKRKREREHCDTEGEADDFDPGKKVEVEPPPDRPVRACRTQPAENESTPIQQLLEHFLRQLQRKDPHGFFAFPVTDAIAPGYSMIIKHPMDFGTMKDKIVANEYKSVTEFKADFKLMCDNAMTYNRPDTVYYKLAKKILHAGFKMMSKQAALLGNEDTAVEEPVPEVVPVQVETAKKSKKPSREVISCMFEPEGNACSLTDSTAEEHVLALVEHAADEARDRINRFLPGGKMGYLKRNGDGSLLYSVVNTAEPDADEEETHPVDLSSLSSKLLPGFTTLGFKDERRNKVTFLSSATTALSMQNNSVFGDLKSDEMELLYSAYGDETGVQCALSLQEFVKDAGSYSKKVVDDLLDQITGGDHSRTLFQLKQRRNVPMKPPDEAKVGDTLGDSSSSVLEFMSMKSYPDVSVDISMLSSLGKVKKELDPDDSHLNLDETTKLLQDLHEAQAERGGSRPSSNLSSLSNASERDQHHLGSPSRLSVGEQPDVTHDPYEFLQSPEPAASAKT
D14: D14 (Arabidopsis thaliana, UniProt Q9SQR3)
Chain of UniProt Q9SQR3 (whole entry, looked up): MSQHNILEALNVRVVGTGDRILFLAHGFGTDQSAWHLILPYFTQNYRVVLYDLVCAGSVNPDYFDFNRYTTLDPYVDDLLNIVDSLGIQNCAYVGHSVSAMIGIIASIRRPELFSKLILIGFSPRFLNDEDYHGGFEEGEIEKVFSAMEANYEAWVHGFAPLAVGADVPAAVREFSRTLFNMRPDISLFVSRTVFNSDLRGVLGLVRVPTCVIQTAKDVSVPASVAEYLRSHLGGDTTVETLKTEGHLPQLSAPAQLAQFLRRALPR
Chain of UniProt P07332 (whole entry, looked up): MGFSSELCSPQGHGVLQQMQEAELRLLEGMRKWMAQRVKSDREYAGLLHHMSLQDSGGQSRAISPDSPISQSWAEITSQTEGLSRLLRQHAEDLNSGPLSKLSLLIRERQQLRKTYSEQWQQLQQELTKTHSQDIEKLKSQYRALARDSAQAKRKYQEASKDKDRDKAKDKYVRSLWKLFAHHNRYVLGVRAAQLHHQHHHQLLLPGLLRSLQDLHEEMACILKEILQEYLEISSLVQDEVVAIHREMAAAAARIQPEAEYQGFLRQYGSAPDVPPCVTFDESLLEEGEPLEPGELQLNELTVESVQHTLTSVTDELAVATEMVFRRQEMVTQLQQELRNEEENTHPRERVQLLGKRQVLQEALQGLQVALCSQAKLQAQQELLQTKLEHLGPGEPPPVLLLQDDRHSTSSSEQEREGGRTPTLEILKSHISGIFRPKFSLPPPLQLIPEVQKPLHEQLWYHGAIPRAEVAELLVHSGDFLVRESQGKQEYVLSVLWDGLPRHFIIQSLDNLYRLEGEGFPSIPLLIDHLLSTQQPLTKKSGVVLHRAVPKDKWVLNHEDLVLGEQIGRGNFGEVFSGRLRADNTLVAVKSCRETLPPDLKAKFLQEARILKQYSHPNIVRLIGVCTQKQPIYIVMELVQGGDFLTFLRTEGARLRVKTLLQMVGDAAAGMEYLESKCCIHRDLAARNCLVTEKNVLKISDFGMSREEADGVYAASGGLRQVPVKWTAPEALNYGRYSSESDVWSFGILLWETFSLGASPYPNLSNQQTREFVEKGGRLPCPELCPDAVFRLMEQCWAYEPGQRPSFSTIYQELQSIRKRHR
Chain of UniProt P53671 (whole entry, looked up): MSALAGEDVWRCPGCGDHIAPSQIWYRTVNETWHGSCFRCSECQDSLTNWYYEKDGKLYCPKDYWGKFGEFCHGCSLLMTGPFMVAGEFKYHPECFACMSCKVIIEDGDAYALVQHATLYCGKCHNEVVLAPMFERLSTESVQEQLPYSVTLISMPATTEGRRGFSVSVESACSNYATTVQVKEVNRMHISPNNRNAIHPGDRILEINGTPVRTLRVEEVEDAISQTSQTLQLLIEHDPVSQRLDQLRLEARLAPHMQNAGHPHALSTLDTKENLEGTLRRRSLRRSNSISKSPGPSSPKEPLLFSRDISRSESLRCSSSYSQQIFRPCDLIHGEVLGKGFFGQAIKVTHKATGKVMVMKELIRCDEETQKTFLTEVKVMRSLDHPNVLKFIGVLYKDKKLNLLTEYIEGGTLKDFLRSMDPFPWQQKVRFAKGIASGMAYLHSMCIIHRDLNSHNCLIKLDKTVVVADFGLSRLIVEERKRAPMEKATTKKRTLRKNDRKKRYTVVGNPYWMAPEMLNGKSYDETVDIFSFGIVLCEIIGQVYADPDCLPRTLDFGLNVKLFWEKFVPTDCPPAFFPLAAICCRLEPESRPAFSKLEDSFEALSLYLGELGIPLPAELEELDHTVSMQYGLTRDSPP
Chain of UniProt O75116 (whole entry, looked up): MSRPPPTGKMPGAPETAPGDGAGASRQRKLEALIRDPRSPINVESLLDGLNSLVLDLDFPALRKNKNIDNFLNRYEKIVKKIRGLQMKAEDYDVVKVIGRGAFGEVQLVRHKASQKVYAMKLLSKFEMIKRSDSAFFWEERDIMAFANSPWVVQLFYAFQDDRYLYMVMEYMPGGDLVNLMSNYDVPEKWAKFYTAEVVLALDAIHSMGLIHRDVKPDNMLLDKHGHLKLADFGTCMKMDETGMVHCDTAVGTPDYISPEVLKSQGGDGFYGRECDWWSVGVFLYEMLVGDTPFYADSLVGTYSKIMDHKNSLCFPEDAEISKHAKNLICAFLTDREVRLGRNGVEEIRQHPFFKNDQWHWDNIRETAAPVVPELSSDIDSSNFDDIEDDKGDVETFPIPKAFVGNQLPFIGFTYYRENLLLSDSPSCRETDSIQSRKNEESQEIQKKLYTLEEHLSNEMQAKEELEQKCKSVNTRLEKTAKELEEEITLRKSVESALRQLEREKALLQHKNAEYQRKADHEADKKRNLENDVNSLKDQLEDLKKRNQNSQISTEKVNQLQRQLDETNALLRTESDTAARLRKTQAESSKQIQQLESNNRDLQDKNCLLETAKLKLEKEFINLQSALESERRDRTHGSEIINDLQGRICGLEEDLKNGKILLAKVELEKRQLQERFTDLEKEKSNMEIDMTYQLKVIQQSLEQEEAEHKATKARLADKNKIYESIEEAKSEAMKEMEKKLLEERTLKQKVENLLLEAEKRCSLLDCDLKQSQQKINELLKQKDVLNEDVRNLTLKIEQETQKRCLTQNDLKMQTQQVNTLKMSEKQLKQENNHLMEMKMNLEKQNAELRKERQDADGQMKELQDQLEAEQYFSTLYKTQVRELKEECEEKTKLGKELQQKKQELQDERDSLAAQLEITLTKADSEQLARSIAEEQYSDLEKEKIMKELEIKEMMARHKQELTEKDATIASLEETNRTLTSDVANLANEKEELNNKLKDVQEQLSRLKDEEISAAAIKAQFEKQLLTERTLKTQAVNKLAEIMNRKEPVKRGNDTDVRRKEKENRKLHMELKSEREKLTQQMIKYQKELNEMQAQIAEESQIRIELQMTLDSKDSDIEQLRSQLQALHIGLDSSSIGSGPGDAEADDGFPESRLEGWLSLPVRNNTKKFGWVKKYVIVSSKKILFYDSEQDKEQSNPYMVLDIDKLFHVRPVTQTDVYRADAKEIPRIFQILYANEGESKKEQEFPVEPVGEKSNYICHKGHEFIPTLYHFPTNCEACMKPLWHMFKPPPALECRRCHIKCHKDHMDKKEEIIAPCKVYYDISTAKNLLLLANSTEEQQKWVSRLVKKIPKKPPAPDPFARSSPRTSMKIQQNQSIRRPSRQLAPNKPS
Chain of UniProt Q96KB5 (whole entry, unmodified, looked up): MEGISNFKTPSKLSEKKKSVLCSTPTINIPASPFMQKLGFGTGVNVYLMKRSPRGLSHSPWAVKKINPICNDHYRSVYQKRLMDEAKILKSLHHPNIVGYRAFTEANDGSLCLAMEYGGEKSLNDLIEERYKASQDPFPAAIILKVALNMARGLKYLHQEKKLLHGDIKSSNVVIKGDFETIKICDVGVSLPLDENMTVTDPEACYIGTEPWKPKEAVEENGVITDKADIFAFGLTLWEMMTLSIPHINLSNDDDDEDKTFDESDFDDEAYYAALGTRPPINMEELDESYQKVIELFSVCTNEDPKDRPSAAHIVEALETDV

Compound	target	effect on	action	method	tested at	quantity	result
C=CC(=O)N1CCC(COCC(=O)N2CCN(c3nc(-c4cnc(N)nc4C(F)F)nc(N4CCOC[C@@H]4C)n3)CC2)CC1	Rho-associated protein kinase 2 (ROCK2, Homo sapiens, UniProt O75116)	binding	–	competition with immobilised ligand	1 µM	remaining binding	96%
COc1cc(-c2cncc3c2CN(C)Cc2cc(N4CCNCC4)ccc2-3)cc(OC)c1OC	Tyrosine-protein kinase Fes/Fps (FES, Homo sapiens, UniProt P07332)	enzyme activity	inhibitor	–	1 µM	remaining activity	86%
CC(=O)Nc1ccc(Oc2ccc3c(c2)C(=O)N(c2cc(C)ccc2C)C3=O)cc1	Fibroblast growth factor 14	thermal stability	–	–	25 µM	ΔTm	9.3 °C
COc1ccccc1-c1cc(C(C)=O)n2ccccc12	BRD9	thermal stability	–	DSF	200 µM	ΔTm	6 °C
CC(=O)Oc1ccc2c(=O)c(Oc3ccc(Cl)cc3)c(C(F)(F)F)oc2c1	Fibroblast growth factor 14	thermal stability	–	–	25 µM	ΔTm	0.1 °C
CNc1ncc2c(/C=C/C(=O)N3CCC(OC)CC3)nn(Cc3cccc(C(F)(F)F)c3)c2n1	LIM domain kinase 2 (LIMK2, Homo sapiens, UniProt P53671)	enzyme activity	inhibitor	radiometric	1 µM	remaining activity	85%
CNC(=O)c1cc(OC)c(-c2cc(C(C)=O)n3ccccc23)cc1OC	BRD9	thermal stability	–	DSF	200 µM	ΔTm	10 °C
CC1=C(/C=C/C(C)=C/C=O)C(C)(C)CCC1	D14	thermal stability	–	DSF	10 µM	ΔTm	-0.69 °C
Cn1c2c(c3ccc(Cl)c(Cl)c31)C(C#N)C1(CCCCC1)NC2=O (racemic)	Lymphokine-activated killer T-cell-originated protein kinase (PBK, Homo sapiens, UniProt Q96KB5)	thermal stability	–	DSF	10 µM	ΔTm	0.7 °C
CC(=O)/C=C/C=C(C)/C=C/C1=C(C)CC(O)CC1(C)C (stereo in doubt)	D14	thermal stability	–	DSF	10 µM	ΔTm	2.99 °C
CC(=O)c1cc(-c2ccccn2)c2ccccn12	BRD9	thermal stability	–	DSF	200 µM	ΔTm	2.5 °C
Cc1cc2c(cc1N1C(=O)c3cccc4c(Cl)ccc(c34)C1=O)n(C)c(=O)n2C	Peregrin, bromodomain (BRPF1, Homo sapiens, UniProt P55201)	thermal stability	–	DSF	10 µM	ΔTm	1.3 °C
